Experimental data from different studies.
Compare with care: the assays were run in different laboratories. Numbers after ± are the reported error.
B1: UGT1A9 (Homo sapiens, UniProt O60656); chain GKLLVVPMDGSHWFTMRSVVEKLILRGHEVVVVMPEVSWQLGRSLNCTVKTYSTSYTLEDLDREFKAFAHAQWKAQVRSIYSLLMGSYNDIFDLFFSNCRSLFKDKKLVEYLKESSFDAVFLDPFDNCGLIVAKYFSLPSVVFARGILCHYLEEGAQCPAPLSYVPRILLGFSDAMTFKERVRNHIMHLEEHLLCHRFFKNALEIASEILQTPVTEYDLYSHTSIWLLRTDFVLDYPKPVMPNMIFIGGINCHQGKPLPMEFEAYINASGEHGIVVFSLGSMVSEIPEKKAMAIADALGKIPQTVLWRYTGTRPSNLANNTILVKWLPQNDLLGHPMTRAFITHAGSHGVYESICNGVPMVMMPLFGDQMDNAKRMETKGAGVTLNVLEMTSEDLENALKAVINDKSYKENIMRLSSLHKDRPVEPLDLAVFWVEFVMRHKGAPHLRPAAHDLTWYQYHSLDVIGFLLAVVLTVAFITFKCCAYGYRKCLGKKGRVKKAHKSKTH

The pKa of `ksi Y32F/D40N/D103N (Pseudomonas putida)` is reported as greater than 9 (UV-vis, item: Tyr57; 25 °C).
For `PRL (Homo sapiens, UniProt P01236)`, the pKa was 5.82 (NMR, item: His138; 35 °C, numbering of the source).
`CSCC[C@H](NC(=O)[C@H](CC(C)C)NC(=O)[C@H](Cc1c[nH]cn1)NC(=O)CNC(=O)[C@@H](NC(=O)[C@H](C)NC(=O)[C@H](Cc1c[nH]c2ccccc12)NC(=O)[C@H](CCC(N)=O)NC(=O)CCCCCNC(=O)[C@H](CCC(=O)NCCCC[C@@H]1NC(=O)[C@@H](Cc2ccc(O)cc2)NC(=O)[C@H](CC(=O)O)NC(=O)CNC(=O)[C@H](CCCNC(=N)N)NC1=O)NC(=O)CN1CCN(CC(=O)O)CCN(CC(=O)O)CC1)C(C)C)C(N)=O` [copper-64 labelled] has a tissue uptake of 1.2 ± 0.36 %ID/g (ICR SCID mouse, female, kidneys; intravenous, 750 kBq, 24 h).
The pKa of `ORF56 (Sulfolobus islandicus, UniProt Q54323)` is reported as 2.88 (NMR, item: Asp52; free native homodimer, low salt).
With `insulin degludec` the CL/F was 0.355 mL/min/kg (human, end-stage renal disease; subcutaneous, 0.4 U/kg single dose, dosed after hemodialysis, geometric mean, non-dialysis profile).
For `Insulin human`, the brain concentration was 32.2 ± 13.4 pg/mg tissue (rat, thalamus/hypothalamus; intranasal, 20 µg per nostril, 360 min).
For `CRYGD P23T (Homo sapiens)`, the pKa was 5.45 (NMR, item: His22; 25 °C, numbering of the source).
For `COc1cccc2c1C(=O)c1c(O)c3c(c(O)c1C2=O)C[C@@](O)(C(=O)CO)C[C@@H]3O[C@H]1C[C@H](NC(=O)[C@@H]2CCCN2C(=O)CN)[C@H](O)[C@H](C)O1`, the Tmax was 5 min (mouse, E0771 tumour-bearing, liver; intravenous, 92 µmol/kg PhAc-ALGP-Dox).
`insulin glulisine`: “subjects with hypoglycaemia” 36.1% (obese type 2 diabetes patients; subcutaneous, 0.2 U/kg, glucose below 70 mg/dL).
`Cc1cc(-c2ccc(NC(=O)[C@H](CCCCNC(=O)CCN3C(=O)CC(SCC(=O)N[C@H](Cc4ccccc4)C(=O)N[C@H]4CSSC[C@@H](C(=O)N[C@H](C(=O)O)[C@@H](C)O)NC(=O)[C@H]([C@@H](C)O)NC(=O)[C@H](CCCCN)NC(=O)[C@@H](Cc5c[nH]c6ccccc56)NC(=O)[C@H](Cc5ccc(O)cc5)NC4=O)C3=O)NC(=O)CN3CCN(CC(=O)O)CCN(CC(=O)O)CCN(CC(=O)O)CC3)c(C)c2)ccc1N=Nc1ccc2c(S(=O)(=O)O)cc(S(=O)(=O)O)c(N)c2c1O` (stereo partly drawn) [yttrium-86 labelled] gave a tumour uptake of 60.5 ± 8.03 %ID/g (PET; female athymic nude mice, AR-42J xenograft, AR-42J tumour; intravenous, 0.92 MBq, 4 nmol, 24 h).
`insulin degludec` — result for “AUC mean estimate”: 0.0821 µM·h (ELISA; healthy human subjects, serum; subcutaneous, abdomen, 0.4 U/kg, 0 to 120 h).
The tissue uptake of `CC(C)[C@H](NC(=O)[C@@H]1CCCN1C(=O)[C@H](CCCNC(=N)N)NC(=O)[C@H](CS)NC(=O)[C@H](Cc1c[nH]c2ccccc12)NC(=O)[C@H](CCCNC(=N)N)NC(=O)[C@@H](Cc1ccccc1)NC(=O)[C@H](Cc1c[nH]cn1)NC(=O)[C@H](CCC(=O)O)NC(=O)[C@H](CS)NC(=O)[C@H](CS)NC(=O)[C@H](CCCCN)NC(=O)[C@@H]1CC(=O)N[C@@H](CCCNC(=N)N)C(=O)N[C@@H](C)C(=O)N[C@@H](CC(=O)O)C(=O)N[C@H](Cc2ccc(O)cc2)C(=O)N1)C(N)=O` [technetium-99m labelled] is reported as 0.34 ± 0.05 %ID/g (C57 mice, skin; intravenous, 0.037 MBq, 4 h).
With `N=C(N)NCCC[C@@H]1NC(=O)[C@H](CSC2CC(=O)N(CCNC(=O)CN3CCN(CC(=O)O)CCN(CC(=O)O)CCN(CC(=O)O)CC3)C2=O)NC(=O)[C@H](CCCCN)NC(=O)[C@@H](Cc2ccc(O)cc2)NC(=O)[C@H](CC(=O)O)NC(=O)CNC1=O` (stereo partly drawn) [gallium-68 labelled] the tumour uptake was 1.53 ± 0.4 %ID/g (BALB/c nude mice, MGC-803 xenograft, tumour; 3 h post-injection, with: unlabelled HS-RGD 50 mg/kg).
`B1 (UGT1A9)` has a Km of 0.65 µM (O=c1cc(-c2ccccc2O)oc2cc(O)ccc12; steady-state kinetics; pH 7.4, 37 °C).
For `ksi F56A/D103N (Pseudomonas putida)`, the pKa was 9.8 (UV-vis, item: Tyr57; 25 °C).
